Measurements of several laboratories.
Protocols differ between the studies behind these lines. Several values in a cell are separate wells, animals, samples, runs or records. ± gives the spread as reported. Where no end group is shown, it is not given here.

Molecule | organism | test | system | setting | scale | measurement | result
COc1cc(-c2oc3cc(O)cc(O)c3c(=O)c2O)ccc1O | Human immunodeficiency virus 1 | viral replication, inhibitor | TZM-bl, NL43 | 11.1 µM | – | inhibition | > 50%
CCOC(=O)c1ccc(OCCC2CCN(c3ccc(C)nn3)CC2)cc1 | Enterovirus D68 | virus yield reduction | RD, US/KY/14-18953 | 72 h | – | EC90 | 106 ± 12 µM
CTCATACTGA | Salmonella enterica Typhimurium | RNA-seq, item: acpP mRNA | peptide, SL1344 | 5 µM, 15 min | relative to: untreated | log2 fold change | -2.1
O=C(O)CSc1nnc(C23CC4CC(CC(C4)C2)C3)n1-c1ccccc1 | Micrococcus luteus | microbial growth, disc diffusion | IFO3232 | 200 µg/disc, 24 h | – | inhibition zone | 18 mm
COc1cccc(/C=C/c2nc3ccc(N4CCCCC4)cc3c(=O)n2-c2cccc(C(C)(C)C)c2)n1 | Zika virus | viral replication, inhibitor | Vero | 10 µM | – | inhibition | ≥ 99.9%
CNC(C)C1CCC(N)C(OC2C(N)CC(N)C(OC3OCC(C)(O)C(NC)C3O)C2O)O1 (stereo not shown) | Micrococcus luteus | microbial growth, disc diffusion | IFO3232 | 100 µg/disc, 24 h | – | inhibition zone | 18 mm
TDVDAVFLRF-NH2 (C-amide) | Drosophila melanogaster | gut contraction | adult gut | 1 µM, within 10 min | relative to: DMS effect | inhibition | 78%
Cc1c(C(=O)Nc2ccc3c(c2)B(O)OC3)nnn1-c1ccccn1 | Leishmania major | – | MHOM/SA/85/JISH118, BALB/c mouse | topical, 50 µL saturated solution twice daily, 10 days, propylene glycol-ethanol 1:1 vehicle | relative to: vehicle | lesion size reduction | 71.4% and 91.3%
COCCSc1nnc(C23CC4CC(CC(C4)C2)C3)n1-c1ccccc1 | Micrococcus luteus | – | IFO 3232 | 200 µg/disc, 24 h, 37 °C | – | inhibition zone diameter | < 10 mm
LSTFFRLFN | Streptococcus gordonii | OD600 | peptide, ATCC 10558, 4 h single-species biofilm | 128 µg/ml, 5 min exposure, OD600 read over 5 h | – | biofilm growth | no effect
Nisin A | Lactococcus lactis | deferred antagonism overlay | HP, GM17 agar | concentration not given, produced by spotted strain | – | inhibition zone diameter | 17 ± 0.27 mm
CCN(CC)CCOc1ccc2c(=O)c3c(Cl)c(Cl)ccc3[nH]c2c1 | Plasmodium berghei | – | male C57BL/6 albino mouse | oral, liver stage, luciferase sporozoites | – | fully protective curative dose | 40 mg/kg
COC(=O)[C@@H]1Cc2c([nH]c3ccccc23)[C@@H](c2ccc3c(c2)OCO3)N1 | Plasmodium berghei | parasitaemia suppression, Peters suppressive test | NK-65, mice | oral | – | ED50 | 27.7 mg/kg
TDADHVFLRF-NH2 (C-amide) | Drosophila melanogaster | heart rate | wandering third instar larval heart | 40 nL injected, 1 µM, 10 min | relative to: DMS | inhibition | 73%
CC(/C=C/C(=O)NO)=C\[C@@H](C)C(=O)c1ccc(N(C)C)cc1 | Lucilia cuprina | larval growth | – | – | relative to: diflubenzuron and dicyclanil, fold less potent | potency ratio | 50 to 100 fold
CCCCc1cc2c(=O)c(I)c[nH]c2cc1OCCOc1ccccc1 | Plasmodium berghei | – | mouse | oral, 50 mg/kg, day 3, single dose in PEG400 | relative to: untreated | parasitemia inhibition | 53.9%
TDVDHVFARF-NH2 (C-amide) | Drosophila melanogaster | heart rate | wandering third instar larval heart | 40 nL injected, 1 µM, 10 min | relative to: DMS | inhibition | 55%

Molecule | organism | test | system | setting | scale | measurement | result
CC[C@H]1OC(=O)[C@H](C)[C@@H](O[C@H]2C[C@@](C)(OC)[C@@H](O)[C@H](C)O2)[C@H](C)[C@@H](O[C@@H]2O[C@H](C)C[C@H](N(C)C)[C@H]2O)[C@](C)(O)C[C@@H](C)CN(C)[C@H](C)[C@@H](O)[C@]1(C)O | Moraxella | – | community-acquired pneumonia patients | Fine score 70 or more | – | sensitive strains | 100%
TDVDHVFLAF-NH2 (C-amide) | Drosophila melanogaster | heart rate | wandering third instar larval heart | 40 nL injected, 1 µM, 10 min | relative to: DMS | inhibition | 55%
Cc1cc(C(C#N)c2ccc(Cl)cc2)c(Cl)cc1NC(=O)c1cc(I)cc(I)c1O (stereo not shown) | Haemonchus contortus | – | multidrug resistant, sheep | subcutaneous, 5 mg/kg, day 2 post-treatment, together with: moxidectin 0.2 mg/kg | – | faecal egg count reduction | 85%
CCOC(=O)/C=C/[C@H](C[C@@H]1CCNC1=O)NC(=O)[C@@H](CC(=O)[C@@H](NC(=O)c1cc(C)on1)C(C)C)Cc1ccc(F)cc1 | Enterovirus D68 | virus yield reduction | RD, US/KY/14-18953 | 72 h | – | EC90 | 0.004 ± 0.002 µM
O=C1NC(=S)S/C1=C\c1cn(Cc2cccc(Cl)c2)c2ccc([N+](=O)[O-])cc12 | Trypanosoma congolense | – | trypomastigotes, IL3000 | – | – | IC50 | > 61 µM
TDVDHVALRF-NH2 (C-amide) | Drosophila melanogaster | heart rate | wandering third instar larval heart | 40 nL injected, 1 µM, 10 min | relative to: DMS | inhibition | 27%
CCCN(CCC)CCCOc1ccc2c(=O)c3c(F)cc(F)cc3[nH]c2c1 | Plasmodium berghei | – | male C57BL/6 albino mouse | oral, liver stage, luciferase sporozoites | – | fully protective curative dose | 10 mg/kg
CO/N=C1\C[C@]2(C[C@@H]3C[C@@H](C/C=C(\C)C[C@@H](C)/C=C/C=C4\CO[C@@H]5[C@H](O)C(C)=C[C@@H](C(=O)O3)[C@]45O)O2)O[C@H](/C(C)=C/C(C)C)[C@H]1C | Haemonchus contortus | – | multidrug resistant, sheep | subcutaneous, 0.2 mg/kg, day 6 post-treatment, together with: closantel 5 mg/kg | – | faecal egg count reduction | 93%
CS(=O)(=O)c1ccc(-c2cnc(N)c(-c3ccc(C(F)(F)F)nc3)c2)cc1 | Plasmodium cynomolgi | – | Macaca mulatta | 20 mg/kg daily for 5 days, together with: chloroquine | – | time to relapse | 16.7 days
TDVAHVFLRF-NH2 (C-amide) | Drosophila melanogaster | gut contraction | wandering third instar larval gut | injection, 1 µM, within 10 min | relative to: DMS effect | inhibition | 10%
GKVKVGVNGFGRIGRLVTRAAFNSGKVDIVA | Candida albicans SC5314 | epithelial damage | peptide, TR146 | 5 µg/mL, 24 h | relative to: untreated infected | LDH release | decreased
TDVDHAFLRF-NH2 (C-amide) | Drosophila melanogaster | gut contraction | adult gut | 1 µM, within 10 min | relative to: DMS effect | inhibition | 100%
O=[N+]([O-])c1ccc2[nH]ccc2c1 | Trypanosoma congolense | – | trypomastigotes, IL3000 | – | – | IC50 | > 154 µM
O=C(O)c1cc(O)c(O)c(O)c1 | Human immunodeficiency virus 1 | viral replication, inhibitor | TZM-bl, NL43 | 11.1 µM | – | inhibition | ~50%
CC1(C)CC[C@]2(C(=O)O)CC[C@]3(C)C(=CC[C@@H]4[C@@]5(C)CC[C@H](OC(=O)CCC(=O)O)[C@@](C)(COC(=O)CCC(=O)O)[C@@H]5CC[C@]43C)[C@@H]2C1 | Leishmania mexicana | – | RAW264.7, axenic amastigotes | – | relative to: RAW ED50 over amastigote ED50 | selectivity index | > 10
CC1(C)S[C@@H]2[C@H](NC(=O)[C@H](N)c3ccc(O)cc3)C(=O)N2[C@H]1C(=O)O | Moraxella | – | community-acquired pneumonia patients | Fine score 70 or more | – | sensitive strains | 0%
C#CCn1cc(/C=C2\SC(=S)NC2=O)c2cc([N+](=O)[O-])ccc21 | Trypanosoma congolense | – | trypomastigotes, IL3000 | – | – | IC50 | > 78 µM

For quick reference, copied from above:
Molecule | organism | test | system | setting | scale | measurement | result
COC(=O)[C@@H]1Cc2c([nH]c3ccccc23)[C@@H](c2ccc3c(c2)OCO3)N1 | Plasmodium berghei | parasitaemia suppression, Peters suppressive test | NK-65, mice | oral | – | ED50 | 27.7 mg/kg
C#CCn1cc(/C=C2\SC(=S)NC2=O)c2cc([N+](=O)[O-])ccc21 | Trypanosoma congolense | – | trypomastigotes, IL3000 | – | – | IC50 | > 78 µM
CC1(C)S[C@@H]2[C@H](NC(=O)[C@H](N)c3ccc(O)cc3)C(=O)N2[C@H]1C(=O)O | Moraxella | – | community-acquired pneumonia patients | Fine score 70 or more | – | sensitive strains | 0%
COc1cccc(/C=C/c2nc3ccc(N4CCCCC4)cc3c(=O)n2-c2cccc(C(C)(C)C)c2)n1 | Zika virus | viral replication, inhibitor | Vero | 10 µM | – | inhibition | ≥ 99.9%
TDVDAVFLRF-NH2 (C-amide) | Drosophila melanogaster | gut contraction | adult gut | 1 µM, within 10 min | relative to: DMS effect | inhibition | 78%
